Assay results pooled from the literature.
Each numbered part is a random draw from the data of one study; scales do not carry over between parts.

Sample 1 — technique: RNA Bind-n-Seq; molecule type: RNA; medium: in vitro; tested at: 365 nM; reference: no-protein control; direction: higher = stronger binding
Target: RNA binding protein fox-1 homolog 2, RRM domain, GST-SBP tag (RBFOX2, Homo sapiens, UniProt O43251-10, residues 100-194)
Setting: natural RNA segment, single round, ends assumed
All sequences stand within: GGGAGUUCUACAGUCCGACGAUC … UGGAAUUCUCGGGUGCCAA
Construct (chain): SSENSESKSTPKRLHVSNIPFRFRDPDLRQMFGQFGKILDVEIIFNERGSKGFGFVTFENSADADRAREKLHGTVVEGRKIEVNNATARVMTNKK
| Sequence | RBNS enrichment (R) |
| --- | --- |
| GCAAGGCACCUGCAGGUUGGGCCAUACUGGCCUCGCCUGGCCUGAGGUCUCGCUGAUGCUGGGCUGGGUGCGACCCCAUCUGCCCAGGACGGGGCCGGCCAGGUGGGCGG | 0.357 |
| AGAGGGAGUGGAUAGCAAGUAUCCCAAGAAACCAACCUGUAAGUCAGGUCCAGCCAGUCCAAGCACAUGGCUUCCCAUCUGGGUGAGCCCACUGUCCCACUCCCACAUGU | 0.538 |
| CCGGGUUAUGGUCGGGUUUCUAUUGGGAAUGCUCUUUGUGCUUUUGGGCAUCUGAAUGGAAGCUUUACAUAGAACCUUAGGUAGAACUCCCCCAAAUCGCCAUAUUUAAA | 1.08 |
| UGUGAAGUCUUAAAGCACUUCUGCUUAAACUCCCAUGUGUGAGGAGUGUGCCUCCCUGUGCCCUCUCAGCUCUGAGGCUGGCCGUCUUUCGGGGUGUUCCUUUUGGCAAA | 0.469 |
| UACCAUUGCAGUUUGUUCUUUUUUUAAAGUCUAAUUUGCAGCCAAGAACGAGUAAUUCUCACCCCAAGCAACAUCUAAUAGGGACUGAGUGACCCCAGCCCAGCCUAGUG | 0.35 |
| AUUGAAUCUAUUGUAUUUCCCUCUUGAUAUUCUACCAUGGUGAUGUCAGCUCAUUUCUAAGAUGCCUUCAGAGAUCUGAGACAUGACAUUAAGAAUGGAGUAGUAACUAG | 0.263 |
| CACUGGGGCCAGCAGGAGUUGGGAACCCCUCUGAGGUGAUUUGCCUGAGCAUGGGGUUCCGGCUGUCACUCAGGCUCAGAGACCCAGCUGGGCUGGGCUUUGCCUUUCAG | 0.813 |
| AGCUAGAGCAGAACUCUUCAUGUACAACGGCCAUUUCUCCUCACUGGCGCGAGAGCGCCUUGACACCUGUACCAAGCAAGCCACCCACUGCCAAGAGAUGUGAUAUAUAA | 0.873 |
| UUCUUUCCUGCUAUGCUGUGAGCUACUGAGCUUUACAGCCAUGAAAACUAUUGUAGGCUCCCUCGCCAAACCAUGGCUUUCCCUCAGCAUCAAGACCUGUGCCAAGGAGA | 1.76 |
| CUCACUAGGUUGGCGGUACAUGUGGCCUUGUGCCCACCCCCAUCCCCAUUGUAGUCAGGUUCCCAGGAUGGAGACAGUGCUCCUGGGGUGGCCACUCAGUGAGGAGGCUC | 0.355 |
| GUAUGUCGAUUGUAUCGCUGCUACAUCAGACUCUAGAAAAAAGGGCUGAGAGGAAGCAAGACGUAAAGAAUUUUCAUCCCGUAUCACAGUGUUUUUAUUGCUCGCCCAGA | 0.89 |
| UUCCCAUAUGCCCCUGGAGCCCCACUUAUUGAGGCCAGCAGAAUAGGUGCAGAGAUGAAGUGAGCUUAGAGAUGUUGCAAAUGCUCUUUAUCCCUUCAGCUCUCUGAUCU | 0.521 |

Sample 2 — technique: universal PBM; molecule type: double-stranded DNA, one strand shown; medium: in vitro; tested at: not given; direction: higher = stronger binding
Target: Sal-like protein 4, full length isoform B (SALL4, Homo sapiens, UniProt Q9UJQ4-2, residues 1-616)
Setting: 8-mer, flanks averaged, mean of replicates
Construct (chain): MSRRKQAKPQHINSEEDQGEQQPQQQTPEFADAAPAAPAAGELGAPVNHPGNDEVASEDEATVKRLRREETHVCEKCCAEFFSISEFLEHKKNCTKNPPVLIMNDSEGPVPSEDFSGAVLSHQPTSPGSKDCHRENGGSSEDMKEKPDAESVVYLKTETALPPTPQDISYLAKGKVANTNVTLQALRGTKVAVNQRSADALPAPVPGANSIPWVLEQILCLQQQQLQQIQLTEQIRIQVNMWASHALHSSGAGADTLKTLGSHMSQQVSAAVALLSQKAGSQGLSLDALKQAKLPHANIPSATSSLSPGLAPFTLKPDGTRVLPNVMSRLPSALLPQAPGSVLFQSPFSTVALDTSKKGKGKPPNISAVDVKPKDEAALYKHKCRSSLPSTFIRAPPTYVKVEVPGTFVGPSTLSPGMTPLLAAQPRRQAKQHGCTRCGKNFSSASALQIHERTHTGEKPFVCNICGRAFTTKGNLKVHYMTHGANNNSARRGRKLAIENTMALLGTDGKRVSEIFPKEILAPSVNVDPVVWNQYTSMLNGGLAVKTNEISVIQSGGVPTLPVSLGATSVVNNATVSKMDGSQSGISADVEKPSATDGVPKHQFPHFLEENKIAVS
| Sequence | E-score |
| --- | --- |
| TCAGAGAA | 0.0782 |
| AATGGCCT | -0.0301 |
| AGGATCCC | -0.182 |
| CAAGATCC | -0.00313 |
| TCTCCCAA | 0.0146 |
| AGACGTCA | 0.00515 |
| CGTTCGTC | -0.191 |
| AGAAGACT | 0.0132 |
| ACGTAGTC | 0.0271 |
| ACGTAGAA | 0.11 |
| GGGAATCA | -0.0585 |
| ACCTACGG | -0.29 |
| CCTCCGGC | -0.379 |
| ATTCAACC | 0.0152 |
| GCCCTTCC | -0.252 |
| CTTAGATA | 0.225 |
| ATGCGCGC | -0.0482 |
| GGACGTGA | -0.115 |
| GCATGTGA | 0.018 |
| ACGAAGCC | -0.184 |
| ACGCGTGA | 0.00171 |
| ACTTTCCG | 0.0491 |
| AAGTGCGA | -0.0766 |
| AATTGTTG | 0.208 |
| CTTTGGCA | -0.0711 |

Sample 3 — technique: RNA Bind-n-Seq; molecule type: RNA; medium: in vitro; tested at: not given; reference: input RNA pool; direction: higher = stronger binding
Target: RING finger protein unkempt homolog, zinc fingers 1-6, GST-SBP tag (UNK, Homo sapiens, UniProt Q9C0B0, residues 30-357)
UniProt Q9C0B0, sequence (30-357, looked up): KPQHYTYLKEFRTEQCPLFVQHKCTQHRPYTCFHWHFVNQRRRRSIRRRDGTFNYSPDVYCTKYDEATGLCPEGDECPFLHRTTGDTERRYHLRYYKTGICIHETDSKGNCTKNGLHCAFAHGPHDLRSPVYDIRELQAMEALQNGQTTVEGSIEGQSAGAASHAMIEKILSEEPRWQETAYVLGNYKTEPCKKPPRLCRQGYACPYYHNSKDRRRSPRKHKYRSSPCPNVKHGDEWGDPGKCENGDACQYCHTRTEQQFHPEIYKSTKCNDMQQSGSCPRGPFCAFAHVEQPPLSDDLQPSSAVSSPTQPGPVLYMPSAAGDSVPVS
Setting: RNA with constant flanks, human-mouse chimeric sites, ends assumed
All sequences stand within: GGGAGUUCUACAGUCCGACGAUC … CAACAGAGGAUUGAGCAUCA
| Sequence | bound/input enrichment |
| --- | --- |
| GAUCUCGGGCCCUCCCCAGGGGCCUCCUUUCGUAUAGUCACUGCUUCUGCAUCAGAUACUUUCAGCUGCAACUCCCUGCAGGGUGGGGCACCCAUUUCAGGCAGAAGGUUUUGGUACCCU | 0.222 ratio |
| AAAGCCCAAGUAUUUUGAAAAAACUCGAACAGAUUUGUCAAGGGUAACCAGCUUGGAGUCUAGCAACUUUGCCAAUGGUUUACCAAUCUGGGGGCUUGUUUUUCUUUUCUUCUUUCAAAU | 0.259 ratio |
| UAUAUCACCAAUGUCCUACAAAAUCCUGACUUGGCUCUGAGAAUGGCUGUGCGGAACAACUUAGCUGGUGCUGAAGAACUCUUUGCCCGGAAAUUUAAUGCUCUUUUCGCCCAGGGAAAC | 0.279 ratio |
| CCAAUUGUGGAGCAGUACUUGAAGACAAAGAAAAAUUCUAAUAAUUUAAUCAUGAAAUACAUUAGCUGCCGCCUGCUGACACUCAUCAUUAUACUGUUGGCAUGUAUCUACCUGGGCUAU | 0.495 ratio |
| UUUCUAUUGCAGCAAACGAUGCUAAGAAUUAAGGAUCCUAAGAAGUCCCUGGAUUUUUAUACGAGGGUUCUUGGACUGACCCUCCUGCAAAAAUGUGACUUCCCUGCUAUGAAGUUCUCG | 0.268 ratio |
| GCACUUCUCAAAUACUGGCCAAAGACUCACAGUCCAAAAGAAGUAAUGUUCUUAAAUGAAUUAGAAGAAAUUUUAGAUGUCAUUGAACCAUCAGAGUUUGUGAAGAUCAUGGAGCCUCUU | 0.3 ratio |
| GCUCCUCCCCGCUCUGCAGCCUGGGGACACUGGGCUGGGACCAGAAUCUUAUUUUUUUUUAAUAGUGUCAGUGUAACUGUAUCCCGUGACAUUUCAUUUUUUUUAAAUAGUGUAUUUUUU | 29.6 ratio |
| AGAAUCUUGGGACUGUUUUACUUAAUUGGUCAUUGAUAGCUUAACAAACAUGGAGAUAAGAUUAGAAGUUUUGACAUCAACAGGUAUUAAGCAGAAAAAACCAUGGCCCAGAGUAUCCUG | 0.286 ratio |
| GUAGCUGGGACUACAGAAAUGCUGGUAAUUUCAGUCACUUGCUGAUGACUUCUGAUGUCCCAGCAAAUAAUGCCACAGUUGACUGCUGAGAAGAUACUUCUGAGGACAUACAGCAGUGGU | 0.141 ratio |
| CAACAGAGUCUAGGAUGGGUUCAUUACAUGAUUCAUGAGCCAGAACCGCAUAUUCUUCUCUUUAGACGACCUCUUCCAAAAGAACAACAAAAAUGAAGUUUAUCUGGGGAUCGUCAAUCU | 0.202 ratio |
| GCUCUUGGGAAUGUAAUCAGCGCCUUGGGGGACAAGAGCAAGAGAGCCACCCAUGUCCCUUACAGAGACUCUAAGCUGACAAGACUCCUACAGGAUUCCCUUGGGGGUAAUAGCCAAACC | 0.22 ratio |

Sample 4 — technique: competition protein-binding microarray; molecule type: double-stranded DNA, one strand shown; medium: in vitro; tested at: 2 µM; with: Cbf1 competitor, 0.05 µM; direction: higher = stronger binding; all sequences stand within: … GTCTTGATTCGCTTGACGCTGCTG
Target: Phosphate system positive regulatory protein PHO4, full length, GST-tagged (PHO4, Saccharomyces cerevisiae, UniProt P07270, residues 1-312)
Setting: whole 60-bp probe, lowest competitor level
Residues (chain): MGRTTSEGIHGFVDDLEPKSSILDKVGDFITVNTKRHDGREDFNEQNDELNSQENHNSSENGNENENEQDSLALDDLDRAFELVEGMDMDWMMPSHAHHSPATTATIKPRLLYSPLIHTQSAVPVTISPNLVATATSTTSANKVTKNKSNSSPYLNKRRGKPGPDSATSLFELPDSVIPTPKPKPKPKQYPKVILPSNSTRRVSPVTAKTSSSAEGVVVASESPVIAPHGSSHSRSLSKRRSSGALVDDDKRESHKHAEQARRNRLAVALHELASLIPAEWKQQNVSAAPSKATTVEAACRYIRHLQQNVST
| Sequence | fluorescence intensity [a.u.] |
| --- | --- |
| TTTTACGGACATAAGAACGTGCCGACCATTCTGGGA | 14500 |
| CATACCCAACCTTGAAGAGTGGGTGAAGATATTTGT | 4060 |
| CAATAGGGGAAAGCATTCGTGATGGAGACGTATATA | 4190 |
| AAGATTACACTCGCGAACGTGCGATCGGGATGATAC | 14400 |
| TAGGCGCAGACCGCGCTCGTGAAGCAGACCTCCCGG | 5600 |
| AAAGCGGTAATTTGTTTCGTGGGTGCAGATATCTAT | 5270 |
| TGAAGTGGGAAGGAAGCATTTAGTTCGTGTAGGCTG | 4620 |
| AGCCCGGCCGCTCACCACGTGCTCTCTGTTGTTGCT | 18000 |
| CGATGGCGCCAGCATCACCTGGAGAGCATGGTGTTA | 5550 |
| AAATTACTAAGTTGTCACACAACTTACCCCGTATGA | 4420 |
| CTTTCCCGATCTTGTATAGTGGGTGTAGCACATTTG | 5420 |
| TGCGTAAAAAAAAGACACATGTGAGACGCAGGAAAA | 10100 |
| TACAGGTCAATTCAACACGTGGTCGTTCTTCACCAG | 17400 |
| GACTTCTCCAAAGACAACGTGCTTTCCGTCCAACCA | 14300 |
| AACTATGCTATAAAAAACGTGACTCGGGTTCTCAGT | 12800 |
| CGGGGTTAAGTTTGGAGGGTGGGTGGCTTGCAGCAG | 5240 |

Sample 5 — technique: protein binding microarray; molecule type: double-stranded DNA, one strand shown; medium: in vitro; tested at: not given; reference: not given; direction: higher = stronger binding
Target: Histone acetyltransferase KAT6A, both winged helices, GST fusion (KAT6A, Homo sapiens, UniProt Q92794, residues 1-181)
Setting: 8-mer, flanks averaged, mean of 2 arrays, mostly near background
Residues (chain): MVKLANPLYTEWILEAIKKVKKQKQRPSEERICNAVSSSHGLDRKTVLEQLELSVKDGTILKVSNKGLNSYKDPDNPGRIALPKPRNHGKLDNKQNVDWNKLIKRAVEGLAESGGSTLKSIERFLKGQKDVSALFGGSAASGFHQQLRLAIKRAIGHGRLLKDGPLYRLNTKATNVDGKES
| Sequence | E-score |
| --- | --- |
| TATTAGGA | -0.146 |
| GGTCTGAC | 0.0103 |
| GAAAGCAC | -0.144 |
| CGAACCCG | 0.262 |
| CAGGTACA | -0.12 |
| ACGCCTCG | 0.165 |
| CGCCAGCA | -0.0348 |
| AGAGCATG | -0.0752 |
| CTTGAAAG | -0.14 |
| ATCTACCC | 0.015 |
| AAGCACAT | -0.0143 |
| TGTTAACA | 0.0602 |
| CTATCTGA | -0.149 |
| CCCTAAGA | -0.215 |
| CCTTAGAA | -0.161 |
| TACCTTCA | -0.159 |
| GACAGGAA | -0.039 |
| ATGTCGTG | -0.112 |
| CTGTGCGC | 0.289 |
| CGACTGTC | 0.0481 |
| GGACGAAC | 0.254 |
| CGCGGTTC | 0.327 |
| GGCGTGAC | 0.0736 |
